Published values of several laboratories.
Protocols differ between the studies behind these lines. ± gives the spread as reported.

O=C(CC1CCOCC1)Nc1ccc([C@H]2[C@@H](F)[C@@H](F)C[C@@H](F)[C@H]2F)cc1 has a hepatic clearance of 4.9 mL/min/kg (liver microsome stability; cynomolgus liver microsomes; 1 µM).
The intact complex of CN(O)C(=O)CCC(=O)NCCCN(CCCCN(CCCNC(=O)CCC(=O)N(C)O)C(=O)CCC(=O)N(C)O)C(=O)CCC(=O)N(C)O.[89Zr] is reported as 97.5 ± 1% (radio-TLC; aqueous buffer; 7 d, pH 7.2, 37 °C, 89Zr-labelled complex, together with: FeCl3 10-fold excess).
For COc1cccc(OC)c1-c1cc(C(=O)NC2(C(=O)O)C3CC4CC(C3)CC2C4)nn1-c1ccc(C(=O)N(C)CCOCCN(C)C(=O)[C@H](CCCCNC(=O)[C@H](CC(C)C)NC(=O)C2OC2C(=O)O)NC(=O)CN2CCN(CC(=O)[O-])CCN(CC(=O)[O-])CCN(CC(=O)[O-])CC2)cc1C(C)C.[177Lu+3] (mixture of isomers), the tumour-to-blood ratio was 2.6 (mouse, HT-29 xenograft; 4 h post injection, biodistribution; relative to: tumour over blood uptake).
CC(C)=CCc1cc(C(=O)/C=C/c2ccc(O)cc2)c(O)cc1O has a CLint of 16.4 µL/min/mg (human liver microsomes; formation of oxidised bavachin metabolite, together with: NADPH).
The body weight of CC(C)OC(=O)[C@H](CO)NCc1cc(Cl)c(OCc2cccc(-c3ccccc3)c2Br)cc1OCc1cccnc1 is reported as 21.2 ± 1.2 g (hPD-L1 MC-38 tumour, humanised hPD-1 C57BL/6 mouse; oral, 10 mg/kg × 21, day 21).
Under “pathway contribution to clearance”, CN(C(=O)C(C)(C)c1cc(C(F)(F)F)cc(C(F)(F)F)c1)c1cnc(N2C[C@H]3COCCN3C[C@H]2CO)cc1-c1ccc(F)cc1CO is recorded as 100% (pooled human liver microsomes; pH 7.4, substrate depletion).
For CC(C)C[C@H](NC(=O)[C@H](CCCN)NC(=O)CNC(=O)[C@@H](NC(=O)[C@H](C)NC(=O)[C@@H]1CSCSC[C@H](NC(=O)CC[C@H](N)C(=O)O)C(=O)N[C@@H](CC(N)=O)C(=O)N[C@@H]([C@@H](C)O)C(=O)N[C@@H](C)C(=O)N[C@@H]([C@@H](C)O)C(=O)N1)[C@@H](C)O)C(=O)N[C@@H](C)C(=O)N[C@@H](CCC(=O)O)C(=O)N[C@@](C)(Cc1ccccc1)C(=O)N[C@@H](CC(C)C)C(=O)N[C@H](C(=O)N[C@@H](CCCNC(=N)N)C(=O)N[C@@H](CO)C(=O)N[C@@H](CO)C(=O)N[C@@H](CC(N)=O)C(=O)N(C)[C@@H](CC(N)=O)C(=O)N[C@@H](Cc1ccccc1)C(=O)NCC(=O)N1CCC[C@H]1C(=O)N[C@@H](CCCCNC(=O)CC[C@H](NC(=O)CC[C@H](NC(=O)CCCCCCCCCCCCCCCCCCC(=O)O)C(=O)O)C(=O)O)C(=O)N[C@@H](CC(C)C)C(=O)N1CCC[C@H]1C(=O)N1CCC[C@H]1C(=O)N[C@H](C(=O)N[C@@H](CCC(=O)O)C(=O)N[C@H](C(=O)NCC(=O)N[C@@H](CO)C(=O)N[C@@H](CC(N)=O)C(=O)N[C@H](C(=O)N[C@@H](Cc1ccc(O)cc1)C(N)=O)[C@@H](C)O)C(C)C)[C@@H](C)O)C(C)C, the half-life was 12.9 days (human, plasma; subcutaneous, 1.2 mg, single dose, healthy volunteers).
With CC(C)(C)NCC(SS(=O)(=O)O)c1ccccc1 (centres unmarked) the body weight was 36.1 g (Swiss Webster mice, Schistosoma mansoni-infected; 400 mg/kg single dose on day 42 post-infection, perfusion day 56 post-infection).
CCCN(C)c1cc(C(F)(F)F)nc(SCCC(=O)NCc2ccco2)n1: ECG parameters “no effect” (electrocardiography; Wistar rat; intraperitoneal, 25 mg/kg, 2 h post-dose, isoflurane anaesthesia; relative to: vehicle control).
CN(C)c1cccc(-c2ccc([C@H]3[C@@H](F)[C@@H](F)C[C@@H](F)[C@H]3F)cc2)c1 has a hepatic clearance of 65 mL/min/kg (hepatocyte stability; cryopreserved mouse hepatocytes; 1 µM).
O=C(O)CCCOc1ccc([18F])cc1-c1cc(-c2ccccc2C(F)(F)F)n(-c2ccccc2)n1 has a tissue uptake of 3.33 ± 0.5 %ID/g (mouse, large intestine; intravenous, dose not given, 180 min).
With CNC(=O)c1ccc([C@H]2[C@@H](F)[C@@H](F)C[C@@H](F)[C@H]2F)cc1 the hepatic clearance was 10 mL/min/kg (hepatocyte stability; cryopreserved rat hepatocytes; 1 µM).
COc1ccc2c(c1)CN(C(=O)CCN1CCC(Cc3ccccc3)CC1)CCS2 gave a fu of 0.017 (human plasma; 250 ng/mL).
For O=C(CN1CCCCC1)Nc1ccc(C2CCCCC2)cc1, the hepatic clearance was 26 mL/min/kg (dog liver microsomes; 1 µM).
The Mon% of Cc1ccc(CN2C(=O)/C(=N\c3ccc(Cl)cc3Br)c3ccccc32)cc1 is reported as 2.63 ± 0.4% (mouse, blood; 150 mg/kg).
CC(C)CC(=O)Nc1ccc([C@H]2[C@@H](F)[C@@H](F)C[C@@H](F)[C@H]2F)cc1 gave a hepatic clearance of 10 mL/min/kg (hepatocyte stability; cryopreserved human hepatocytes; 1 µM).
For Cc1noc(C)c1Cn1cc(N2C(=O)CN(Cc3cccc(OS(=O)(=O)O)c3)C2=O)cn1, the plasma concentration was 442 ± 81.9 ng/mL (rat Sprague-Dawley male, plasma; oral, 100 mg/kg of parent drug, 2 h).
